Measured values gathered from unrelated publications.
Compare with care: the assays were run in different laboratories. Numbers after ± are the reported error.

Compound = CCCC[C@H](NC(=O)CCCCCCCNC(=O)CN1CCN(CC(=O)O)CCN(CC(=O)O)CC1)C(=O)N[C@H]1CC(=O)NCCCC[C@@H](C(N)=O)NC(=O)[C@H](Cc2c[nH]c3ccccc23)NC(=O)[C@H](CCCNC(=N)N)NC(=O)[C@@H](Cc2ccccc2)NC(=O)[C@H](Cc2c[nH]cn2)NC1=O [fluorine-18 labelled]; test system = C57 mice B16-F10 melanoma, spleen; conditions = intravenous, 0.37 MBq, 2 h; tissue uptake = 0.28 ± 0.06 %ID/g
Compound = CCCC[C@H](NC(=O)CNC(=O)CNC(=O)[C@H](CCCCNC(=O)[C@H](CC(=O)O)NC(=O)C(C)c1ccc(CC(C)C)cc1)NC(=O)CN1CCN(CC(=O)O)CCN(CC(=O)O)CCN(CC(=O)O)CC1)C(=O)N[C@H]1CC(=O)NCCCC[C@@H](C(N)=O)NC(=O)[C@H](Cc2c[nH]c3ccccc23)NC(=O)[C@H](CCCNC(=N)N)NC(=O)[C@@H](Cc2ccccc2)NC(=O)[C@H](Cc2c[nH]cn2)NC1=O (some centres unmarked) [lutetium-177 labelled]; test system = C57 mice, tumour-bearing, heart; conditions = intravenous, 0.037 MBq, 4 h; tissue uptake = 0.27 ± 0.09 %ID/g
Compound = O=C(NCC1OC2CCC=CCCC2O1)c1ccc([18F])nc1 (centres unmarked); test system = female BALB/c nude mice, LS174T tumour, bone; conditions = intravenous, 60 min, together with: unmodified CC49 24 h before; tissue uptake = 0.9 ± 0.3 %ID/g
Compound = COc1ccc2c(c1)C(C)(C)C(/C=C/C1=C(Oc3ccc(C(=O)NCCCCOc4cc(CN(Cc5ccccn5)Cc5ccccn5)cc(CN(Cc5ccccn5)Cc5ccccn5)c4)cc3)C(=C/C=C3/N(CCCCS(=O)(=O)[O-])c4ccc(OC)cc4C3(C)C)CCC1)=[N+]2CCCCS(=O)(=O)[O-].O=[N+]([O-])[O-].O=[N+]([O-])[O-].[99Tc+].[C-]#[O+].[C-]#[O+].[C-]#[O+].[Zn+2]; test system = BALB/c mice, S. aureus myositis, kidneys; conditions = 12 h post-injection; tissue uptake = 2.98 %ID/g
Compound = N#C[C@@H]1CCCN1C(=O)CNC(=O)c1ccnc2ccc(OCCCN3CCN(C(=O)CCc4ccc5c(c4)CN4CCN6CC(=O)[O][68Ga-]([O]C(=O)C4)([O]5)[O]c4ccc(CCC(=O)N5CCN(CCCOc7ccc8nccc(C(=O)NCC(=O)N9CCC[C@H]9C#N)c8c7)CC5)cc4C6)CC3)cc12; test system = BALB/c nude mice, U-87 MG xenograft, brain; conditions = 2 h; tissue uptake = 0.08 ± 0.01 %ID/g
Compound = O=C(NCC1OC2CCC=CCCC2O1)c1ccc(COCCOCCOCC[18F])cc1 (centres unmarked); test system = healthy female BALB/c nude mice, large intestine; conditions = intravenous, 7.4 MBq per mouse, 15 min; tissue uptake = 5.6 ± 0.3 %ID/g
Compound = CC(C)C[C@H](NC(=O)[C@@H](CCCCNC(=O)[C@@H](Cc1ccccc1)NC(=O)CCCCCCCNC(=O)CN1CCN(CC(=O)O)CCN(CC(=O)O)CCN(CC(=O)O)CC1)NC(=O)[C@H](Cc1ccc(O)cc1)NC(=O)[C@H](CO)NC(=O)[C@H](Cc1c[nH]c2ccccc12)NC(=O)[C@H](Cc1c[nH]cn1)NC(=O)[C@@H]1CCC(=O)N1)C(=O)N[C@@H](CCCNC(=N)N)C(=O)N1CCC[C@H]1C(=O)NCC(N)=O [indium-111 labelled]; test = biodistribution; test system = male athymic nude mice, DU-145 prostate cancer xenograft, stomach; conditions = intravenous, 0.037 MBq, 1 h post-injection; tissue uptake = 0.61 ± 0.28 %ID/g
Compound = CCCC[C@H](NC(=O)COCCOCCNC(=O)CN1CCN(CC(=O)O)CCN(CC(=O)O)CC1)C(=O)N[C@H]1CC(=O)NCCCC[C@@H](C(N)=O)NC(=O)[C@H](Cc2c[nH]c3ccccc23)NC(=O)[C@H](CCCNC(=N)N)NC(=O)[C@@H](Cc2ccccc2)NC(=O)[C@H](Cc2c[nH]cn2)NC1=O [fluorine-18 labelled]; test system = C57 mice, B16/F10 melanoma, bone; conditions = intravenous, 1 h, together with: NDP-MSH 10 µg; tissue uptake = 3.74 ± 1.1 %ID/g
Compound = COc1ccc(Nc2nc(Nc3ccc(OCCOCCOCC[18F])cc3)ncc2Br)cc1; test system = ICR mice, S180 tumour-bearing, lung; conditions = intravenous, 370 kBq, 60 min; tissue uptake = 4.09 ± 0.63 %ID/g
Compound = Cc1cc(C)n(CCN(CCN)CCCCCCNC(=O)[C@@H](N)Cc2c[nH]c3ccccc23)n1.[99Tc+].[C-]#[O+].[C-]#[O+].[C-]#[O+]; test system = BALB/c nude mice, A549 xenograft, spleen; conditions = intravenous, 4 h; tissue uptake = 1 ± 0.35 %IA/g
Compound = N#C[C@@H]1CCCN1C(=O)CNC(=O)c1ccnc2ccc(OCCCN3CCN(C(=O)CCc4ccc5c(c4)CN4CCN(Cc6cc(CCC(=O)O)ccc6O)CC(=O)[O][Al-]([18F])([O]C(=O)C4)[O]5)CC3)cc12 (some centres unmarked); test system = BALB/c nude mice, U-87 MG xenograft, brain; conditions = 1 h; tissue uptake = 0.08 ± 0.01 %ID/g
Compound = O=C(O)CCCOc1ccc([18F])cc1-c1cc(-c2ccccc2C(F)(F)F)n(-c2ccccc2)n1; test system = mice, large intestine; conditions = intravenous, 30 min; tissue uptake = 0.34 ± 0.05 %ID/g
Compound = N#C[C@@H]1CCCN1C(=O)CNC(=O)c1ccnc2ccc(OCCCN3CCN(C(=O)CCc4ccc(O)c(CN5CCN6CC(=O)[O][Al-]([18F])([O]C(=O)C5)[O]c5ccc(CCC(=O)N7CCN(CCCOc8ccc9nccc(C(=O)NCC(=O)N%10CCC[C@H]%10C#N)c9c8)CC7)cc5C6)c4)CC3)cc12 (some centres unmarked); test system = BALB/c nude mice, U-87 MG xenograft, intestine; conditions = 1 h, blocking, together with: DOTA-FAPI-04 40 nmol/mouse co-injected; tissue uptake = 5.52 ± 0.83 %ID/g
Compound = CCCC[C@H](NC(=O)CNC(=O)CNC(=O)[C@H](CCCCNC(=O)[C@H](CCN)NC(=O)C(C)c1ccc(CC(C)C)cc1)NC(=O)CN1CCN(CC(=O)O)CCN(CC(=O)O)CCN(CC(=O)O)CC1)C(=O)N[C@H]1CC(=O)NCCCC[C@@H](C(N)=O)NC(=O)[C@H](Cc2c[nH]c3ccccc23)NC(=O)[C@H](CCCNC(=N)N)NC(=O)[C@@H](Cc2ccccc2)NC(=O)[C@H](Cc2c[nH]cn2)NC1=O (some centres unmarked) [lutetium-177 labelled]; test system = C57 mice, tumour-bearing, brain; conditions = 2 h; tissue uptake = 0.03 ± 0.02 %ID/g
Compound = COc1ccc(Nc2nc(Nc3ccc(OCCOCC[18F])cc3)ncc2Br)cc1; test system = ICR mice, S180 tumour-bearing, spleen; conditions = intravenous, 370 kBq, 60 min; tissue uptake = 1.93 ± 0.04 %ID/g
Compound = CCCC[C@H](NC(=O)CNC(=O)CNC(=O)[C@H](CCCCNC(=O)C(C)c1ccc(CC(C)C)cc1)NC(=O)CN1CCN(CC(=O)O)CCN(CC(=O)O)CCN(CC(=O)O)CC1)C(=O)N[C@H]1CC(=O)NCCCC[C@@H](C(N)=O)NC(=O)[C@H](Cc2c[nH]c3ccccc23)NC(=O)[C@H](CCCNC(=N)N)NC(=O)[C@@H](Cc2ccccc2)NC(=O)[C@H](Cc2c[nH]cn2)NC1=O (some centres unmarked) [lutetium-177 labelled]; test system = C57 mice, tumour-bearing, lung; conditions = 2 h; tissue uptake = 1.9 ± 0.46 %ID/g
Compound = Cc1cc(C)n(CCN(CCN)CCCCCCNC(=O)[C@@H](N)Cc2c[nH]cn2)n1.[99Tc+].[C-]#[O+].[C-]#[O+].[C-]#[O+]; test system = BALB/c nude mice A549 xenograft, intestine; conditions = intravenous, 15 min; tissue uptake = 11.4 ± 2.1 %ID/g

Some of these lines once more:
Compound = O=C(O)CCCOc1ccc([18F])cc1-c1cc(-c2ccccc2C(F)(F)F)n(-c2ccccc2)n1; test system = mice, large intestine; conditions = intravenous, 30 min; tissue uptake = 0.34 ± 0.05 %ID/g
Compound = N#C[C@@H]1CCCN1C(=O)CNC(=O)c1ccnc2ccc(OCCCN3CCN(C(=O)CCc4ccc(O)c(CN5CCN6CC(=O)[O][Al-]([18F])([O]C(=O)C5)[O]c5ccc(CCC(=O)N7CCN(CCCOc8ccc9nccc(C(=O)NCC(=O)N%10CCC[C@H]%10C#N)c9c8)CC7)cc5C6)c4)CC3)cc12 (some centres unmarked); test system = BALB/c nude mice, U-87 MG xenograft, intestine; conditions = 1 h, blocking, together with: DOTA-FAPI-04 40 nmol/mouse co-injected; tissue uptake = 5.52 ± 0.83 %ID/g
Compound = CCCC[C@H](NC(=O)CNC(=O)CNC(=O)[C@H](CCCCNC(=O)[C@H](CCN)NC(=O)C(C)c1ccc(CC(C)C)cc1)NC(=O)CN1CCN(CC(=O)O)CCN(CC(=O)O)CCN(CC(=O)O)CC1)C(=O)N[C@H]1CC(=O)NCCCC[C@@H](C(N)=O)NC(=O)[C@H](Cc2c[nH]c3ccccc23)NC(=O)[C@H](CCCNC(=N)N)NC(=O)[C@@H](Cc2ccccc2)NC(=O)[C@H](Cc2c[nH]cn2)NC1=O (some centres unmarked) [lutetium-177 labelled]; test system = C57 mice, tumour-bearing, brain; conditions = 2 h; tissue uptake = 0.03 ± 0.02 %ID/g
